Measurements from different studies.
Compare with care: the assays were run in different laboratories. ± marks the error that the study gave.
PSMB7: Proteasome subunit beta type-7 (PSMB7, Homo sapiens, UniProt Q99436)
Chain of UniProt Q99436 (whole entry, looked up): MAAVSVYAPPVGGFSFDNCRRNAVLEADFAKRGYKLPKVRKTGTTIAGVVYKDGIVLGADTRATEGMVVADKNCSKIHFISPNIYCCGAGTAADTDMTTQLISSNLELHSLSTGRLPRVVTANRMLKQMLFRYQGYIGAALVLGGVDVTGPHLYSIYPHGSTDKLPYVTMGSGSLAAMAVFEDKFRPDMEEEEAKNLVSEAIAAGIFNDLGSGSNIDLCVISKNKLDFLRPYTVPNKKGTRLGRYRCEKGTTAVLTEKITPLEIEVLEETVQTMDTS
Low molecular weight phosphotyrosine protein phosphatase isoform A: Low molecular weight phosphotyrosine protein phosphatase, isoform A (Mus musculus, UniProt Q9D358)
Chain of UniProt Q9D358 (whole entry, looked up): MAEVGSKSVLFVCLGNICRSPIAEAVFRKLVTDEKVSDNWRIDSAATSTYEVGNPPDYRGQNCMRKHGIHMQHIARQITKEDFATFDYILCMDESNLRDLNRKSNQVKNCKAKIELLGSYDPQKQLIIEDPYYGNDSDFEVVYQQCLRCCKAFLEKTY
Serotonin N-acetyltransferase: Serotonin N-acetyltransferase (Ovis aries, UniProt Q29495)
Chain of UniProt Q29495 (whole entry, looked up): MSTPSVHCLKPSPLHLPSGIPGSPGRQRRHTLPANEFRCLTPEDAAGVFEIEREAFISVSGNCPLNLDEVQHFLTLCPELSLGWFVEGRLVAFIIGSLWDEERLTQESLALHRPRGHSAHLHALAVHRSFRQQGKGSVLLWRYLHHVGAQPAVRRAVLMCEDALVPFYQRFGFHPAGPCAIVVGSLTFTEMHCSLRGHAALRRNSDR
MAP2K1: Dual specificity mitogen-activated protein kinase kinase 1 (MAP2K1, Homo sapiens, UniProt Q02750)
Chain of UniProt Q02750 (whole entry, looked up): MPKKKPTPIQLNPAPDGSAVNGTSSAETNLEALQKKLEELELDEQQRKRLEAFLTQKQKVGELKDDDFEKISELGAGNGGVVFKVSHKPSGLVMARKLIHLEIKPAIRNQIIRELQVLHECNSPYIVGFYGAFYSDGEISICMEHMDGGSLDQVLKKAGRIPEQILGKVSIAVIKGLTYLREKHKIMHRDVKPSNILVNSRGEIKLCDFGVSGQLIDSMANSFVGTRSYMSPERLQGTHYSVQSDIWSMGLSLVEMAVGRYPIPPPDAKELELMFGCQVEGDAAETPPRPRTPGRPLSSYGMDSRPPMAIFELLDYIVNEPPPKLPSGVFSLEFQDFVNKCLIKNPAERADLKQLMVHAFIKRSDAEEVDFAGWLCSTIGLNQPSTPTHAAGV
Slc16a1: Monocarboxylate transporter 1 (Slc16a1, Mus musculus, UniProt P53986)
Chain of UniProt P53986 (whole entry, looked up): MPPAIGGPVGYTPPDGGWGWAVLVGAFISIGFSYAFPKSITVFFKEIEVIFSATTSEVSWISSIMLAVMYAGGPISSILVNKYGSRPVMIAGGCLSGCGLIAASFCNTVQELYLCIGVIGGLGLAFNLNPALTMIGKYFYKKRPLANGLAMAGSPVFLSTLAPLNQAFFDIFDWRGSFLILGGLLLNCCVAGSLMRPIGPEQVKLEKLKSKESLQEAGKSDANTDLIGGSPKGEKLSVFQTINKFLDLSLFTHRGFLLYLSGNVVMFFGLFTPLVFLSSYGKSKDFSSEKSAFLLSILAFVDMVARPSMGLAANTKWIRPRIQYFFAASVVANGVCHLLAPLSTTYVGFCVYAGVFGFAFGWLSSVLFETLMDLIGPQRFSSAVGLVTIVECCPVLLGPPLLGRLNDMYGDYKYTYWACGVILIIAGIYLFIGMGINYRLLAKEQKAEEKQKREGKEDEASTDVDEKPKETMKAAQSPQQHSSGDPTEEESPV
MAL12: Alpha-glucosidase MAL12 (MAL12, Saccharomyces cerevisiae S288c, UniProt P53341)
Chain of UniProt P53341 (whole entry, looked up): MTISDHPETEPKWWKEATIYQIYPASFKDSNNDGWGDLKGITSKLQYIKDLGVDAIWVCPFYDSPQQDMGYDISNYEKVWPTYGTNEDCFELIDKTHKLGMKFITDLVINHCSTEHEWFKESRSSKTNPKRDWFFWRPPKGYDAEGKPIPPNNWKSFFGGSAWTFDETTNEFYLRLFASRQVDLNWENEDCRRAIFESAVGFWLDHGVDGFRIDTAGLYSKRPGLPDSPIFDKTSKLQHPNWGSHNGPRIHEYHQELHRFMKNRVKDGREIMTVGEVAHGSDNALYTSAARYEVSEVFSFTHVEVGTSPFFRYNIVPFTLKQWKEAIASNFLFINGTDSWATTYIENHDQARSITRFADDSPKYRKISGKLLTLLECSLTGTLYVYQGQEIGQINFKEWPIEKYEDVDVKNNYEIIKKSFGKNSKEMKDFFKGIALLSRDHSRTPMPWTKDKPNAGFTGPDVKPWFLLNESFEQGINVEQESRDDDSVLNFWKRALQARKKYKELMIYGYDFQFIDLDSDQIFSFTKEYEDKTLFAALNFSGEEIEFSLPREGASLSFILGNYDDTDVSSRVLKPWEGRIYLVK
F12: Coagulation factor XII (F12, Homo sapiens, UniProt P00748)
Chain of UniProt P00748 (whole entry, looked up): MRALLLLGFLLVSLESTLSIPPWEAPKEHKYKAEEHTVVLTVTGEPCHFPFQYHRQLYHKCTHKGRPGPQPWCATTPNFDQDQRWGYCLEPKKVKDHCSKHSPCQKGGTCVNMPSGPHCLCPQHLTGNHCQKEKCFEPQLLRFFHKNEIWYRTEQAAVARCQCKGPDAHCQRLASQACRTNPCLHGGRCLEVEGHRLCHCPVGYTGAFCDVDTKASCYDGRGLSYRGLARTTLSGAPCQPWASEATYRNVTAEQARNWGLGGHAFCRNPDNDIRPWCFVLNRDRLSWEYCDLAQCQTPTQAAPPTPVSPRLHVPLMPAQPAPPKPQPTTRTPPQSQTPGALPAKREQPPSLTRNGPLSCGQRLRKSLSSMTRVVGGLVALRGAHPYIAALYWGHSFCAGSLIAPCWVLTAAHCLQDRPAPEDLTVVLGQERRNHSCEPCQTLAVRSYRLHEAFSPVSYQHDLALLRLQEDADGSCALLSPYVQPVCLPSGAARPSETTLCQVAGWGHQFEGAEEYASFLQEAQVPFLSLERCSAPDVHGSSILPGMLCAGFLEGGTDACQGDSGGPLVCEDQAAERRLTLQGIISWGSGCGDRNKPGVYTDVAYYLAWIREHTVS
Urease subunit alpha: Urease subunit alpha (Sporosarcina pasteurii, UniProt P41020)
Chain of UniProt P41020 (whole entry, looked up): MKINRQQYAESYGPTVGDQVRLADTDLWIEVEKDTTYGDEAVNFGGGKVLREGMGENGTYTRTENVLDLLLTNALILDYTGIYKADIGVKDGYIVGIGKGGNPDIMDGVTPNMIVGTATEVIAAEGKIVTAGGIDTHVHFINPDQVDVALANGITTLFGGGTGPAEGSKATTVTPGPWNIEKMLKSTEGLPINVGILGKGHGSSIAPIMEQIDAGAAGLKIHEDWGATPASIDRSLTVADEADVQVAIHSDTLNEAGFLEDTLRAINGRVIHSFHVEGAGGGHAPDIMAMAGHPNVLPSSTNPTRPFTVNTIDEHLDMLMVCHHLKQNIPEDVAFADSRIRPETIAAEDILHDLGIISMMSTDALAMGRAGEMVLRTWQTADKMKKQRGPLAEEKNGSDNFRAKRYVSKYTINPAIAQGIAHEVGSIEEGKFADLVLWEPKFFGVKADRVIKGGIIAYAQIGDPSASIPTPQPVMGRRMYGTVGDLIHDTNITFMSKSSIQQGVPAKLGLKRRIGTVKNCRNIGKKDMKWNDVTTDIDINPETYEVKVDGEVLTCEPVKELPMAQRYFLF
Chain of UniProt P54687 (whole entry, looked up): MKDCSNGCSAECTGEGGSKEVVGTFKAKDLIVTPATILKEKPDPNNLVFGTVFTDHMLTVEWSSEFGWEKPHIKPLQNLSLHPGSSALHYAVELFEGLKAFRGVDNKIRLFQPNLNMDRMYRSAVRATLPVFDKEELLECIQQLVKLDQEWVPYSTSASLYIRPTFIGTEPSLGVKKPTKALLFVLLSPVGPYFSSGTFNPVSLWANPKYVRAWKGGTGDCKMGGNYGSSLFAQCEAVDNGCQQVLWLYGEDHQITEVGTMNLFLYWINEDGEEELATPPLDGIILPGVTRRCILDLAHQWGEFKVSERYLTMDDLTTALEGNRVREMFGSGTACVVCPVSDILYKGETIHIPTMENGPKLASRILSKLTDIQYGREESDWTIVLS
Chain of UniProt P40763 (whole entry, looked up): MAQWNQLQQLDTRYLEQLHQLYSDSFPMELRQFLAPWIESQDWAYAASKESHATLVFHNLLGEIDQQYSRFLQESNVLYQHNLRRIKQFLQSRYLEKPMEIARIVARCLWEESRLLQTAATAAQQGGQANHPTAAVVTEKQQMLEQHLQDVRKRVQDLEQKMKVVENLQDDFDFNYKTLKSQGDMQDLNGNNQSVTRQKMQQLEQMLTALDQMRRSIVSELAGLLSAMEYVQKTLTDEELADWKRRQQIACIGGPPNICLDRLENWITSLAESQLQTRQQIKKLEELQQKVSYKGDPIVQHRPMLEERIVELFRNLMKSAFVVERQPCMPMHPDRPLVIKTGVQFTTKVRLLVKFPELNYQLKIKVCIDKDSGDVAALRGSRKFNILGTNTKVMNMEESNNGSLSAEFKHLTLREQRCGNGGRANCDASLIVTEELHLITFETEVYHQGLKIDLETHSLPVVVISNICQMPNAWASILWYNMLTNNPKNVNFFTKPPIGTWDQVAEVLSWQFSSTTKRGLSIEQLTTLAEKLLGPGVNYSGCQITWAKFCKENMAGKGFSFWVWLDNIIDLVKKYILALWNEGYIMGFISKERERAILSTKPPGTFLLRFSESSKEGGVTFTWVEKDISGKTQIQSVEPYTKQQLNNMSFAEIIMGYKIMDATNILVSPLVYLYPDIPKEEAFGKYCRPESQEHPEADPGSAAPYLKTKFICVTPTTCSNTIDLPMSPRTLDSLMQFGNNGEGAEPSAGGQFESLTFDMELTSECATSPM
Chain of UniProt P04746 (whole entry, looked up): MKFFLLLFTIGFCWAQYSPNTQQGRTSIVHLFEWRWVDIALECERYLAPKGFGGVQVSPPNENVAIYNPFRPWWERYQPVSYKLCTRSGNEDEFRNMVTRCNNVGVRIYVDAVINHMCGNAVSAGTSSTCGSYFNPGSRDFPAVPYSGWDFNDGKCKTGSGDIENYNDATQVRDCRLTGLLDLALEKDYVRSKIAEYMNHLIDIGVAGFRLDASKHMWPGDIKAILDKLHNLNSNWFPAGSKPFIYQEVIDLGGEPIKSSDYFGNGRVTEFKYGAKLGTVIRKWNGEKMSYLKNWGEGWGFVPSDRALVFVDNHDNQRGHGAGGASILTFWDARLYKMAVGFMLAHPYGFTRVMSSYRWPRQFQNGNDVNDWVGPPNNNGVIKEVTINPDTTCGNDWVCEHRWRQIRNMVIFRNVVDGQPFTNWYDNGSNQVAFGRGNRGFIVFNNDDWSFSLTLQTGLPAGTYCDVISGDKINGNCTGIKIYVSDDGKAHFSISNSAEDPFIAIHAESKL

For `CCCCCCCCCCCCc1cc(=O)c2ccccc2n1O`, the IC50 was 0.1 µM (Type II NADH dehydrogenase (Plasmodium falciparum, UniProt Q8I302); enzyme activity, inhibitor, NADH oxidation absorbance).
For `Cc1ncc(C(=O)N[C@@H](CC2CCC(C3CCCCC3)CC2)C(=O)N[C@@H](CC(C)C)C(=O)N[C@H](/C=C/S(C)(=O)=O)Cc2ccc(CN)cc2)s1` (stereo partly drawn), the IC50 was 3.33 µM (PSMB7; inhibitor, biochemical).
`O=C(NNS(=O)(=O)c1ccccc1)c1ccc2oc3ccccc3c2c1` has an IC50 of 1.53 µM (BCAT1 (Homo sapiens, UniProt P54687); inhibitor).
The IC50 of `N#Cc1ccccc1-c1cc(NCCCN2CCCCC2)c2ccccc2n1` is reported as 0.46 µM (Low molecular weight phosphotyrosine protein phosphatase isoform A; enzyme activity, inhibitor; together with: OMFP substrate).
With `C[C@@H]1CN(C(=O)c2ccc(NC(=O)c3cc(O[C@H](C)c4c(Cl)ccc(F)c4Cl)c(N)nn3)cc2)C[C@H](C)N1` the IC50 was 0.674 µM (ALK (Homo sapiens, UniProt Q9UM73, G1202R); enzyme activity, inhibitor; together with: 1 mM ATP).
The IC50 of `O=C(O)Cc1ccc(N2C(=O)/C(=C3/C(=O)N(Cc4ccc(F)cc4)c4ccccc43)SC2=S)cc1` is reported as 9.8 ± 8.1 µM (Serotonin N-acetyltransferase; inhibitor, stopped-flow UV; together with: serotonin 100 µM, acetyl-CoA 100 µM).
`CC(=O)c1ccc2cc(S(=O)(=O)Nc3ccc(F)cc3)ccc2c1` gave an IC50 of 3.59 µM (STAT3 (Homo sapiens, UniProt P40763); tyrosine phosphorylation, inhibitor, ELISA, measured: phospho-Tyr705).
With `C=CC(=O)N1CCC([C@@H]2CCNc3c(C(N)=O)c(-c4ccc(Oc5ccccc5)cc4)nn32)CC1` the IC50 was 2.04 µM (MAP2K1).
With `CC(C)C[C@H](NC(=O)c1cnccn1)C(=O)N[C@@H](C)C(=O)N[C@H](/C=C/S(C)(=O)=O)Cc1ccc(CN)cc1` the IC50 was 0.238 µM (PSMB7; inhibitor, biochemical).
The IC50 of `CN1CCN(c2ccc(Nc3ncc4cc(C#N)c(=O)n(C5CCCC5)c4n3)cc2)CC1` is reported as > 10 µM (PAK5 (Homo sapiens, UniProt Q9P286)).
The IC50 of `O=C(O)CCCCN1C(=O)/C(=C2/C(=O)N(Cc3ccc(F)cc3)c3ccccc32)SC1=S` is reported as 30 µM (Serotonin N-acetyltransferase; inhibitor, stopped-flow UV; together with: serotonin 100 µM, acetyl-CoA 100 µM).
`CC(C)(C)n1nc(-c2cnc3cc(OC4CC4)ccc3c2)c(C(N)=O)c1N` has an IC50 of 1.03 µM (EGFR (Homo sapiens, UniProt P00533)).
For `CC[C@H](C)[C@H](NC(=O)[C@H](Cc1ccccc1)NC(=O)[C@H](Cc1ccc(O)cc1)NC(=O)[C@@H]1CCCN1C(=O)[C@@H](N)Cc1ccc(O)cc1)C(=O)N[C@H](CCCCN)C(=O)N[C@@H](CC(C)C)C(=O)NCC(=O)N[C@H](CCCCN)C(=O)NCC(=O)N[C@@H](CCC(=O)O)C(=O)N[C@H](C(=O)N[C@@H](CC(N)=O)C(=O)N[C@@H](CC(C)C)[C@@H](O)CC(=O)N[C@H](C(=O)N[C@@H](C)C(=O)N[C@@H](CCC(=O)O)C(=O)N1CCC[C@@H]1C(=O)N[C@@H](CCCCNC(=O)CCC(=O)O[C@H]1CC[C@@]2(C)C(=CC[C@H]3[C@@H]4CC[C@H]([C@H](C)CCCC(C)C)[C@@]4(C)CC[C@@H]32)C1)C(N)=O)C(C)C)C(C)C`, the IC50 was 0.0045 µM (Beta-secretase 1 (BACE1, Homo sapiens, UniProt P56817); Aβ40 lowering, AlphaLISA; HEK293 APP695).
`CC(C)Cn1c(=O)n(C)c(=O)c2c1nc(Cc1cccc3ccccc13)c(=O)n2CCCCO` has an IC50 of 0.548 µM (Slc16a1; lactate transport; MCF7 expressing Slc16a1; 10 min, together with: [14C]lactate).
`O=C(O)c1ccc(NS(=O)(=O)c2ccc(Cl)c(Cl)c2)c2ncccc12` has an IC50 of > 100 µM (HSD17B2 (Homo sapiens, UniProt P37059); enzyme activity, inhibitor; together with: β-estradiol).
`[Fe+2].c1ccc(CN(Cc2ccccn2)C(c2ccccn2)c2ccccn2)nc1` gave an IC50 of > 1000 µM (Proteasome subunit beta type-7, in 20S proteasome (PSMB7, Homo sapiens, UniProt Q99436); trypsin-like activity, inhibitor, purified 20S proteasome; pH 7.4, together with: 20 µM Bz-VGR-AMC).
`CCCCOc1nc(N)nc(N)c1OCCCOc1ccccc1CCC(=O)O` gave an IC50 of > 5 µM (uncharacterized protein (Mycobacteroides abscessus, UniProt B1MD46); enzyme activity, inhibitor, NADPH fluorescence; together with: 1 nM enzyme).
`COCC(=O)N1CCC[C@H](C(=O)NCc2nc(-c3ccc(C#N)cc3)cs2)C1` has an IC50 of > 30 µM (PSMB1/PSMB8/PSMB3 (Homo sapiens, UniProt P20618+P28062+P49720)).
`COc1cc(/C=N/n2c(C)nc3ccc(C)cc3c2=O)ccc1OCc1ccccc1` gave an IC50 of 57.4 ± 2.56 µM (MAL12; enzyme activity, inhibitor; Saccharomyces cerevisiae; together with: 4-nitrophenyl glucopyranoside).
The IC50 of `c1ccc(-c2cc(NCCCN3CCCCC3)c3ccccc3n2)cc1` is reported as 1.56 µM (Low molecular weight phosphotyrosine protein phosphatase isoform A; enzyme activity, inhibitor; together with: OMFP substrate).
The IC50 of `COc1ccnc(CNC(=O)c2cn(Cc3ccc(Cn4ccccc4=O)cc3)nc2C2CC2)c1F` is reported as > 40 µM (F12).
`COc1cc(C(=O)NS(=O)(=O)c2ccccc2C)ccc1Cc1cn(C)c2ccc(NC(=O)OC3CCCC3)cc12` has an IC50 of 3.4 µM (LRRC8A/LRRC8C (Homo sapiens, UniProt Q8IWT6+Q8TDW0, L134K/L136K); ion current, inhibitor, whole-cell patch clamp; HCT116 LRRC8-/- transfected; at +100 mV).
With `Cc1nc2ccccc2c(=O)n1NC(=O)CSc1nc2ccccc2c(=O)n1-c1ccccc1` the IC50 was 430 ± 8.49 µM (Pancreatic alpha-amylase (Homo sapiens, UniProt P04746); enzyme activity, inhibitor).
For `Cc1cnc(-c2ccc(-c3ccc(NC(=O)Nc4c(F)cc(F)cc4F)cc3F)c3c2C(=O)NC3)[nH]1`, the IC50 was 0.325 µM (MAP2K1; enzyme activity, inhibitor, mobility shift; together with: ATP 1 mM).
`CC[C@@H]1[C@H](F)C(=O)N[C@@H]1COc1nccc2cc(C(N)=O)c(OC)cc12` has an IC50 of > 5 µM (MAP2K1; ATP-site probe binding, ActivX profiling; THP-1 cell lysate; Lys2 site).
With `O=C(O)c1ccc(-c2cc(NCCCN3CCCCC3)c3ccccc3n2)cc1` the IC50 was 2.1 µM (Low molecular weight phosphotyrosine protein phosphatase isoform A; enzyme activity, inhibitor; together with: OMFP substrate).
`CCc1ccc(/C=N/n2c(C)nc3ccc(C)cc3c2=O)s1` has an IC50 of 37.2 ± 1.83 µM (MAL12; enzyme activity, inhibitor; Saccharomyces cerevisiae; together with: 4-nitrophenyl glucopyranoside).
`O=c1nc(SCc2cc(F)cc(C(F)(F)F)c2)nc(SCc2ccc3nc(Cl)ccc3c2)[nH]1` has an IC50 of 26.9 µM (TOP2A (Homo sapiens, UniProt P11388); ATPase activity, ATP-competitive inhibitor; together with: ATP 2 mM).
`CC[C@H](C)[C@H](NC(=O)[C@H](CS)NC(=O)[C@H](CCC(=O)O)NC(=O)[C@H](C)NC(=O)[C@@H](NC(=O)[C@@H](N)CCCNC(=N)N)[C@@H](C)CC)C(=O)N[C@@H](CC(C)C)C(=O)NCC(=O)N[C@@H](CCSC)C(=O)O` has an IC50 of 24.2 µM (HLA class I histocompatibility antigen, B alpha chain, allele B*40:01 (Homo sapiens, UniProt P01889); binding, competitor, radioligand competition; two days, room temperature, HLA-B*40:01).
`COc1cc(/C=C/C(=O)CC(=O)/C=C/c2ccc(O)c(OC)c2)ccc1O` gave an IC50 of 3 µM (Karenia brevis thioredoxin reductase; enzyme activity, inhibitor).
`CC(C)Cn1c(=O)n(C)c(=O)c2nc(SCCCCO)c(Cc3cccc4ccccc34)nc21` has an IC50 of 0.669 µM (Slc16a1; lactate transport; MCF7 expressing Slc16a1; 10 min, together with: [14C]lactate).
`Cc1cnn(Cc2ccc(Cn3c(C)cc(C(=O)NCc4ccc(CN)cc4)c3C)cc2)c1` has an IC50 of > 10 µM (F12).
`Brc1ccc2nc(-c3ccccc3)cc(NCCCN3CCCCC3)c2c1` has an IC50 of > 80 µM (Low molecular weight phosphotyrosine protein phosphatase isoform A; enzyme activity, inhibitor; together with: OMFP substrate).
`COc1ccc(F)c(CNC(=O)c2cnn(Cc3ccc(Cn4ccccc4=O)cc3)c2)c1F` has an IC50 of > 40 µM (F12).
`Fc1ccc(/C=C/C=N/NC(=S)Nc2ccc(Cl)cc2)cc1` has an IC50 of 14 ± 0.7 µM (Urease subunit alpha; enzyme activity, indophenol method).
The IC50 of `O=C(O)CCCCCN1C(=O)/C(=C2/C(=O)N(Cc3ccc(F)cc3)c3ccccc32)NC1=S` is reported as 56 ± 6 µM (Serotonin N-acetyltransferase; inhibitor, stopped-flow UV; together with: serotonin 100 µM, acetyl-CoA 100 µM).
For `CCc1ccc(NC(=S)N/N=C/C=C/c2ccc(F)cc2)cc1`, the IC50 was 10.7 ± 1.4 µM (Urease subunit alpha; enzyme activity, indophenol method).
The IC50 of `O=C1NC(=S)S/C1=C1\C(=O)N(Cc2ccc(F)cc2)c2ccccc21` is reported as > 60 µM (Serotonin N-acetyltransferase; inhibitor, stopped-flow UV; together with: serotonin 100 µM, acetyl-CoA 100 µM).
For `c1ccc(-c2cc(SCCCN3CCCCC3)c3ccccc3n2)cc1`, the IC50 was 66.9 µM (Low molecular weight phosphotyrosine protein phosphatase isoform A; enzyme activity, inhibitor; together with: OMFP substrate).
The IC50 of `O=C(O)CCCCCN1C(=O)N/C(=C2\C(=O)N(Cc3ccc(F)cc3)c3ccccc32)C1=O` is reported as 31 ± 12 µM (Serotonin N-acetyltransferase; inhibitor, stopped-flow UV; together with: serotonin 100 µM, acetyl-CoA 100 µM).
`N#Cc1cccc(NC(=S)N/N=C/C=C/c2ccc(F)cc2)c1` gave an IC50 of 20.9 ± 0.1 µM (Urease subunit alpha; enzyme activity, indophenol method).
`CC(=O)Nc1ccc(Nc2nc(-c3sc(N)nc3C)cs2)cc1` gave an IC50 of 2.82 µM (LOXL2 (Homo sapiens, UniProt Q9Y4K0); enzyme activity; HEK-293T conditioned media).
`CCOc1ccnc(CNC(=O)c2cn(Cc3ccc(Cn4ccccc4=O)cc3)nc2COC)c1F` has an IC50 of > 40 µM (F12).
`COc1cc(/C=N/n2c(C)nc3ccc(C)cc3c2=O)cc([N+](=O)[O-])c1O` has an IC50 of 55 ± 2.88 µM (MAL12; enzyme activity, inhibitor; Saccharomyces cerevisiae; together with: 4-nitrophenyl glucopyranoside).
The IC50 of `CC(C)(C)NC(=O)CC[C@H](NC(=O)C(=O)c1c[nH]c2ccccc12)C(=O)NCc1cccc(B(O)O)c1` is reported as > 33.3 µM (PSMB7; inhibitor).
